Measured values gathered from unrelated publications.
Each line is one published result; not all experiments were run side by side.
Matrix: plasma

With `COC(=O)C1=CNC=C(C(=O)OC)C1c1ccc(F)c(C(F)(F)F)c1` the AUC(0-inf) was 4.29 µg·h/mL (male Sprague-Dawley rat; oral, 50 mg/kg).
`C/C(N)=N/C(=N\S(=O)(=O)c1ccc(C(F)(F)F)cc1)N1C[C@H](c2ccccc2)C(c2ccc(Cl)cc2)=N1` gave an AUC(0-inf) of 2.79 µg·h/mL (male Sprague-Dawley rat; intravenous, 2 mg/kg).
`CCC(CC)n1c(Cc2ccco2)nc2cc(C(=O)N[C@@H](CC(=O)O)c3ccccc3)ccc21` has an AUC(0-inf) of 0.803 µg·h/mL (male Sprague-Dawley rat; intravenous, 1 mg/kg).
For `O=C(C1CCN(c2nnnn2-c2ccccc2)CC1)N1CCCc2ccccc21`, the AUC(0-t) was 0.0058 µg·h/mL (male Sprague-Dawley rat; oral, 5 mg/kg).
`OC1(C(F)(F)F)CCN(c2nc(Nc3ccnc(C(F)(F)F)c3)nc(-c3cccc(C(F)(F)F)n3)n2)C1` (stereo not drawn) has an AUC(0-inf) of 1.21 µg·h/mL (Sprague-Dawley rat; intravenous, 1 mg/kg).
`CCC(CC)n1c(Cc2cccs2)nc2cc(C(=O)N[C@@H](CC(=O)O)c3ccccc3)ccc21` has an AUC(0-inf) of 0.551 µg·h/mL (male Sprague-Dawley rat; intravenous, 1 mg/kg).
`Cc1cc2c(cc1O)C=C1C=CC(=O)C(C)(C)[C@H]1CC2` gave an AUC(0-inf) of 0.623 µg·h/mL (male Sprague-Dawley rat; intravenous, 2 mg/kg).
`Cc1cccc(Cn2ncc3c4cc(F)c(CN(C)C)cc4n(C)c3c2=O)n1` gave an AUC(0-inf) of 1.93 µg·h/mL (Sprague-Dawley rat; intravenous, 5 mg/kg).
With `O=c1c(-c2ccc(Cl)c(CN3CCOCC3)c2)coc2cc(O)ccc12` the AUC(0-t) was 0.573 µg·h/mL (male Sprague-Dawley rat; intravenous, 2 mg/kg).

Repeated from above:
`OC1(C(F)(F)F)CCN(c2nc(Nc3ccnc(C(F)(F)F)c3)nc(-c3cccc(C(F)(F)F)n3)n2)C1` (stereo not drawn) has an AUC(0-inf) of 1.21 µg·h/mL (Sprague-Dawley rat; intravenous, 1 mg/kg).
